Measurements collected from several papers.
Compare with care: the assays were run in different laboratories.

| Structure (SMILES) | test | system | setting | measurement | result |
| --- | --- | --- | --- | --- | --- |
| Cn1nc(NS(C)(=O)=O)c2c(Cl)ccc(-n3c([C@H](Cc4cc(F)cc(F)c4)NC(=O)Cn4nc(C(F)F)c5c4C(F)(F)[C@@H]4C[C@H]54)nc4nc(OCCC(F)(F)F)ccc4c3=O)c21 | item: total cholesterol grade 2 increase | human | 200 mg once daily, powder in bottle | patients with laboratory abnormality | 17% |
| O=C1Nc2cc3[nH]nc(-c4ccncc4)c3cc2CN1Cc1ccccc1 | CTCAE v4.03 | human, relapsed or refractory advanced solid tumours | intravenous, 7.2 mg/kg | patients with vitreous floaters | 0% |
| C=CC(=O)Nc1cc(Nc2nccc(Nc3cc(Cl)c(F)cc3C(C)(C)O)n2)c(OC)cc1N1CC[C@@H](N(C)C)C1 | – | human patients | oral, 50 mg, treatment-emergent adverse events | patients with decreased appetite | 16.7% |
| Cn1cncc1-c1c(F)cncc1NC(=O)c1c(N)nn2cc(F)cnc12 | – | human patients | oral, 220 mg once daily, 2 weeks on 1 week off | patients grade ≥3 white cell decrease | 0% |
| COc1ncnn2ccc(-c3cnc4nc(C)n(Cc5nnc([C@@H](C)F)o5)c4c3)c12 | – | human | oral, dose not given, grade 3 | patients with dysgeusia | 0% |
| C[C@]1(O)C[C@@](N)(c2ccc(-c3nc4n(c3-c3ccccc3)COc3ccncc3-4)cc2)C1 | – | human, advanced or metastatic solid tumours | 20 mg once daily, phase I dose escalation | patients with Stomatitis TEAE | 0% |
| Cc1cn([C@H]2O[C@@H](CO[P@@](=O)(N[C@@H](C)C(=O)OC(C)C)Oc3ccccc3)[C@H](O)[C@H]2F)c(=O)[nH]c1=O | item: grade 1/2 | human | 50 mg | patients with decreased platelets | 17% |
| C[C@@H]1OC(=O)NN=C1c1ccc(-c2ccc(F)cc2)c(C(F)(F)F)c1 | phase I trial, item: non-cardiac chest pain all grades | human patients | 5 mg loading then 0.25 mg daily | patients with adverse event | 0% |
| COc1ccc(-c2c(-c3ccc(C#N)c(F)c3)nc(N3CCC(N)CC3)n(C)c2=O)cc1F | item: rash maculo-papular | human patients | oral, dose not given, dose escalation | patients with TRAE any grade | 4% |
| CN(C)C(=O)c1cc2cnc(Nc3ccc(N4CCNCC4)cn3)nc2n1C1CCCC1 | item: other hematologic AESIs | human, HR+/HER2− advanced breast cancer | oral, dose not given, grade 3, CTCAE v4.03 | patients with adverse event | 0% |

For quick reference, copied from above:
| Structure (SMILES) | test | system | setting | measurement | result |
| --- | --- | --- | --- | --- | --- |
| O=C1Nc2cc3[nH]nc(-c4ccncc4)c3cc2CN1Cc1ccccc1 | CTCAE v4.03 | human, relapsed or refractory advanced solid tumours | intravenous, 7.2 mg/kg | patients with vitreous floaters | 0% |
